{"data": "Measured values gathered from unrelated publications", "note": "Compare with care: the assays were run in different laboratories."}
{"SMILES": "CCNCCCNC/C=C\\CNCCCNCC", "system": "advanced refractory solid tumour patients", "setting": "intravenous, dose not given, fatigue", "endpoint": "patients with treatment-related TEAE", "value": "34.8%"}
{"SMILES": "C=CCNc1c(O)cc2c(O)c1C[C@@H](C)C[C@H](OC)[C@H](O)[C@@H](C)/C=C(\\C)[C@H](OC(N)=O)[C@@H](OC)/C=C\\C=C(/C)C(=O)N2", "system": "unresectable or metastatic STS, GIST, other", "setting": "intravenous, 500 mg/m^2", "endpoint": "patients with constipation TEAE", "value": "43%"}
{"SMILES": "COc1cc2c(Oc3ccc4[nH]c(C)cc4c3F)ccnc2cc1OCC1(N)CC1", "system": "paediatric refractory sarcoma patients", "setting": "8 mg/kg", "endpoint": "patients with grade 3 Triglyceride elevation", "value": "0%"}
{"SMILES": "CC(C)C[C@H](NC(=O)[C@@H](Cc1c[nH]c2ccccc12)NC(=O)[C@H](Cc1ccc(O)cc1)NC(=O)[C@H](CO)NC(=O)[C@H](Cc1c[nH]c2ccccc12)NC(=O)[C@H](Cc1c[nH]cn1)NC(=O)[C@@H]1CCC(=O)N1)C(=O)N[C@@H](CCCNC(=N)N)C(=O)N1CCC[C@H]1C(=O)NCC(N)=O", "system": "Chinese CPP children, boys", "setting": "intramuscular, 22.5 mg, 12 months, day 1, month 6", "endpoint": "patients who died", "value": "0%"}
{"SMILES": "Cn1cc(-c2nc(N[C@@H]3CCCC[C@@H]3N)c(F)c3c2C(=O)NC3)cn1", "system": "relapsed/refractory AML patients", "setting": "oral, dose not given, phase Ib trial, all doses", "endpoint": "patients with gingival bleeding", "value": "9%"}
{"SMILES": "C=CC(=O)N1CC[C@H](n2nc(C#Cc3cc(OC)cc(OC)c3)c3c(N)ncnc32)C1", "system": "hyperphosphataemia patients", "setting": "oral, once daily, grade ≥3, sevelamer users", "endpoint": "patients with ADR", "value": "9.1%"}
{"SMILES": "Cc1nc(-c2cnc(NC(C)C)n(C)c2=O)ccc1Oc1ccnc(-c2cnn(C)c2)c1", "system": "patients with TGCT", "setting": "oral, dose not given, NCI-CTCAE v4.03", "endpoint": "patients with TEAE leading to discontinuation", "value": "6%"}
{"SMILES": "COc1c(C)cnc(Cn2cc(C#CCCOP(=O)(O)O)c3c(Cl)nc(N)nc32)c1C", "system": "patients, advanced solid tumours", "setting": "dose not given, possibly drug-related", "endpoint": "patients with hot flushes", "value": "29%"}
{"SMILES": "CO[C@H]1C[C@@H]2CC[C@@H](C)[C@@](O)(O2)C(=O)C(=O)N2CCCC[C@H]2C(=O)O[C@H]([C@H](C)C[C@@H]2CC[C@@H](OC(=O)NCCOCCOCCOCCOCCOCCOCCOCCOCCC(=O)N3CCc4cc(Cn5nc(-c6ccc7oc(N)nc7c6)c6c(N)ncnc65)ccc4C3)[C@H](OC)C2)C[C@@H](O)[C@H](C)/C=C(\\C)[C@@H](O)[C@@H](OC)C(=O)[C@H](C)C[C@H](C)/C=C/C=C/C=C/1C", "assay": "refers to: treatment-related decreased appetite", "system": "patients with advanced solid tumours", "setting": "intravenous, dose not given, any grade, all doses", "endpoint": "patients with AE", "value": "29.8%"}
{"SMILES": "COc1nnc2ccc(N3CCC(c4ccc(OCCN5CCN(C)C(=O)[C@H]5C)cc4)CC3)nn12", "assay": "refers to: fatigue", "system": "patients with solid tumours or lymphoma", "setting": "oral, dose not given, all grades, treatment-related", "endpoint": "patients with adverse event", "value": "35.3%"}
{"SMILES": "CN1CC[C@@H](c2c(O)cc(O)c3c(=O)cc(-c4ccc(C(F)(F)F)cc4Cl)oc23)[C@@H]1CO", "assay": "refers to: respiratory failure", "system": "AML", "setting": "oral, 100 mg, grade 3 to 4, intermittent dosing", "endpoint": "patients with adverse event", "value": "0%"}
{"SMILES": "Nc1nc2cc(-c3ccc4ncc(C(=O)N5CCOCC5)n4c3)ccc2o1", "assay": "refers to: Diarrhea", "system": "advanced solid tumour patients", "setting": "dose not given, all grades, all doses", "endpoint": "patients with adverse event", "value": "46%"}
{"SMILES": "O=C1Nc2cc3[nH]nc(-c4ccncc4)c3cc2CN1Cc1ccccc1", "assay": "CTCAE v4.03", "system": "advanced solid tumour patients", "setting": "intravenous, 4.8 mg/kg, schedules 1/2", "endpoint": "patients with ≥1 TEAE", "value": "100%"}
{"SMILES": "N[C@@H]1c2ccccc2OC12CCN(c1cnc3c(N4CCCc5ncccc54)n[nH]c3n1)CC2", "system": "advanced solid tumour patients", "setting": "oral, 20 mg once daily", "endpoint": "patients with fatal TEAE", "value": "0%"}
{"SMILES": "CC(=O)c1c(C)c2cnc(Nc3ccc(C4CCN(CCS(C)(=O)=O)CC4)cn3)nc2n(C2CCCC2)c1=O", "system": "HR+/HER2- advanced breast cancer patients", "setting": "oral, 100 mg bid, grade 3/4, monotherapy arm", "endpoint": "patients with hypertriglyceridaemia", "value": "0%"}
{"SMILES": "C[C@@H]1OC(=O)NN=C1c1ccc(-c2ccc(F)cc2)c(C(F)(F)F)c1", "system": "patients, phase I trial", "setting": "oral, 5 mg once daily, worst grade 1", "endpoint": "patients with back pain", "value": "0%"}
{"SMILES": "COc1ccc(-c2c(-c3ccc(C#N)c(F)c3)nc(N3CCC(N)CC3)n(C)c2=O)cc1F", "assay": "refers to: conjunctival hemorrhage", "system": "neuroendocrine neoplasm patients", "setting": "oral, 60 mg, dose expansion", "endpoint": "patients with TRAE any grade", "value": "0%"}
